Published values gathered from unrelated publications.
Compare with care: the assays were run in different laboratories. Several values in a cell are separate wells, animals, samples, runs or records. ± marks the error that the study gave.

For CSCC[C@H](N)C(=O)N[C@@H](CO)C(=O)N[C@H](C(=O)N[C@@H](C)C(=O)NCC(=O)N[C@@H](CC(C)C)C(=O)N[C@@H](CCCCN)C(=O)N[C@@H](CCCCN)C(=O)N[C@@H](CCC(N)=O)C(=O)N[C@@H](Cc1c[nH]c2ccccc12)C(=O)N[C@@H](Cc1ccc(O)cc1)C(=O)N[C@@H](CCCCN)C(=O)N[C@@H](C)C(=O)N[C@@H](CO)C(=O)N[C@@H](CCC(N)=O)C(=O)N[C@@H](CC(C)C)C(=O)N[C@H](C(=O)N[C@@H](CO)C(=O)N[C@@H](CCC(=O)O)C(=O)N[C@@H](CCCCN)C(=O)N[C@H](C(=O)NCC(=O)NCC(=O)N[C@@H](C)C(N)=O)C(C)C)C(C)C)C(C)C, the helical content was 28% (circular dichroism; 25% DOPS/75% DOPC liposomes; 1 mM lipid).
For O=C(c1ccccc1)N1C(c2ccc(OCC3CCN(CCCF)C3)cc2)c2ccc(O)cc2CC12CC2 (stereo not shown), “AUC extrapolated percentage” read 0.353% and 0.349% (C57BL/6J mice, plasma; intraperitoneal, 25 mg/kg).
For O=S(=O)(Nc1ccc(OC(F)(F)F)cc1)N1CCCC(C2c3ccc(F)cc3CCc3cc(F)ccc32)C1 (stereo not shown), the tissue/plasma ratio was less than 0.02 (mouse; oral, 30 mg/kg, 2 h; relative to: brain over plasma).
With O=[11C](OC(C(F)(F)F)C(F)(F)F)N1CCC(CNS(=O)(=O)c2ccc(Cl)cc2)CC1 the unchanged tracer was 7% (Sprague-Dawley rat, plasma; iv, dose not given, 30 min).
For C=C(NC(=O)c1csc(-c2nc3c(cc2O)-c2nc(cs2)C(=O)NC(C(C)O)C(=O)NC(=C(C)OC)c2nc(cs2)C(=O)NC2c4nc(cs4)C(=O)NC(COC(=O)c4c5c6c(cccc6n4O)COC(=O)C(OC4CC(C)(O)C(N(C)C)C(C)O4)C2OC5)c2nc-3cs2)n1)C(N)=O (stereo not shown), the AUC(0-last) was 44900 ± 10600 ng·h/mL (cynomolgus monkey, both sexes, plasma; intravenous infusion, 9 mg/kg single dose).
The tissue/plasma ratio of C/C(N)=N/C(=N\S(=O)(=O)c1ccc(C(F)(F)F)cc1)N1C[C@H](c2ccccc2)C(c2ccc(Cl)cc2)=N1 is reported as 6 (C57BL/6 mouse, male, fat; intravenous, 10 mg/kg; relative to: fat over plasma).
COc1cccc(OC)c1-c1cc(C(=O)NC2(C(=O)O)C3CC4CC(C3)CC2C4)nn1-c1ccc(C(=O)N(C)CCCN(C)CCCN(C)C(=O)[C@H](CCCCNC(=O)[C@H](CC(C)C)NC(=O)C2OC2C(=O)O)NC(=O)CN2CCN(CC(=O)[O-])CCN(CC(=O)[O-])CCN(CC(=O)[O-])CC2)cc1C(C)C.[177Lu+3] (mixture of isomers) — result for “tumour-to-large intestine ratio”: 46.5 (mouse HT-29 xenograft; 72 h, biodistribution; relative to: tumour over large intestine).
CCCCCCCCCCCCCCCC(=O)N[C@@H](CCCCN)C(=O)N[C@@H](CCCCN)C(=O)N[C@@H](CO)C(=O)N[C@@H](CCCNC(=N)N)C(=O)N[C@@H](C)C(=O)N[C@@H](CC(C)C)C(=O)N[C@@H](Cc1ccccc1)C(N)=O gave a clearance of 77 mL/min (human patients, plasma; intravenous, 0.5 mg/kg over 2 h).
CCC(=O)N(C)c1ccc(Cl)c(Cl)c1 has a plasma concentration of 246 ng/mL and 404 ng/mL (LC-MS/MS; mouse C57BL/6 female, plasma; subcutaneous, 2 mg/kg, 0.083 h).
The tumour-to-lung ratio of COc1cccc(OC)c1-c1cc(C(=O)NC2(C(=O)O)C3CC4CC(C3)CC2C4)nn1-c1ccc(C(=O)N(C)CCCN(C)C(=O)[C@H](CCCCNC(=O)[C@H](CC(C)C)NC(=O)C2OC2C(=O)O)NC(=O)CN2CCN(CC(=O)[O-])CCN(CC(=O)[O-])CCN(CC(=O)[O-])CC2)cc1C(C)C.[177Lu+3] (mixture of isomers) is reported as 7.65 (mouse, HT-29 xenograft; 72 h post injection, biodistribution; relative to: tumour over lung uptake).
CC[C@H](C)[C@@H]1NC(=O)[C@H](Cc2ccc(O)cc2)NC(=O)CCCSC[C@@H](C(=O)N(CC(=O)N[C@@H](CC(C)C)C(=O)NCC(N)=O)Cc2ccc(F)cc2)NC(=O)[C@H](CC(N)=O)NC(=O)[C@H](CCC(N)=O)NC1=O: “subjects with any TEAE” 50% (human; intranasal, 5 µg single dose).
CN(O)C(=O)CCC(=O)NCCCN(CCCCN(CCCNC(=O)CCC(=O)N(C)O)C(=O)CCC(=O)N(C)O)C(=O)CCC(=O)N(C)O.[89Zr] has a tracer uptake of 0.8 %ID/g (mouse, blood; 1 h).
CCC(C(=O)Nc1ccc(C(N)=O)c(F)c1)n1cc(OC)c(-c2cc(Cl)ccc2-n2cc(C(F)(F)F)nn2)cc1=O (stereo not shown): “moderate adverse events” 0% (healthy male humans; 50 mg, fed).

Repeated from above:
CCC(=O)N(C)c1ccc(Cl)c(Cl)c1 has a plasma concentration of 246 ng/mL and 404 ng/mL (LC-MS/MS; mouse C57BL/6 female, plasma; subcutaneous, 2 mg/kg, 0.083 h).
The tumour-to-lung ratio of COc1cccc(OC)c1-c1cc(C(=O)NC2(C(=O)O)C3CC4CC(C3)CC2C4)nn1-c1ccc(C(=O)N(C)CCCN(C)C(=O)[C@H](CCCCNC(=O)[C@H](CC(C)C)NC(=O)C2OC2C(=O)O)NC(=O)CN2CCN(CC(=O)[O-])CCN(CC(=O)[O-])CCN(CC(=O)[O-])CC2)cc1C(C)C.[177Lu+3] (mixture of isomers) is reported as 7.65 (mouse, HT-29 xenograft; 72 h post injection, biodistribution; relative to: tumour over lung uptake).
